Published values collected from several papers.
Lines come from different studies, so protocols differ.

Under “injection site reaction”, `CC[C@H](C)[C@H](NC(=O)[C@H](CC(C)C)NC(=O)[C@H](Cc1c[nH]c2ccccc12)NC(=O)[C@H](CCC(N)=O)NC(=O)[C@@H](NC(=O)[C@H](Cc1ccccc1)NC(=O)[C@H](C)NC(=O)[C@H](CCCCNC(=O)COCCOCCNC(=O)COCCOCCNC(=O)CC[C@H](NC(=O)CCCCCCCCCCCCCCCCCCC(=O)O)C(=O)O)NC(=O)[C@H](CCC(N)=O)NC(=O)[C@H](C)NC(=O)[C@@H](NC(=O)[C@H](CCCCN)NC(=O)[C@H](CC(=O)O)NC(=O)[C@H](CC(C)C)NC(=O)C(C)(C)NC(=O)[C@@H](NC(=O)[C@H](CO)NC(=O)[C@H](Cc1ccc(O)cc1)NC(=O)[C@H](CC(=O)O)NC(=O)[C@H](CO)NC(=O)[C@@H](NC(=O)[C@H](Cc1ccccc1)NC(=O)[C@@H](NC(=O)CNC(=O)[C@H](CCC(=O)O)NC(=O)C(C)(C)NC(=O)[C@@H](N)Cc1ccc(O)cc1)[C@@H](C)O)[C@@H](C)O)[C@@H](C)CC)[C@@H](C)CC)C(C)C)C(=O)N[C@@H](C)C(=O)NCC(=O)NCC(=O)N1CCC[C@H]1C(=O)N[C@@H](CO)C(=O)N[C@@H](CO)C(=O)NCC(=O)N[C@@H](C)C(=O)N1CCC[C@H]1C(=O)N1CCC[C@H]1C(=O)N1CCC[C@H]1C(=O)N[C@@H](CO)C(N)=O` is recorded as 0% (healthy subjects; 1.5 mg, multiple ascending dose).
`CC(C)(F)C[C@H](N[C@@H](c1ccc(-c2ccc(S(C)(=O)=O)cc2)cc1)C(F)(F)F)C(=O)NC1(C#N)CC1` has an inhibition of -0.175% (Replicase polyprotein 1ab, main protease (rep, Severe acute respiratory syndrome coronavirus 2, UniProt P0DTD1); reporter gene (Gaussia luciferase), inhibitor; 20 µM).
For `GPQNQRNAPRITF`, “frequency of responding donors” read 33 (AIM; peptide, CD8+ T cells from PBMC, human donors; HLA-B*07:02 restricted, unit not given; baseline: positive over tested donors).
`Nc1ncnc2c([C@@H]3N[C@H](CO)[C@@H](O)[C@H]3O)c[nH]c12` has an antigen-positive cells of 0.3% (Marburg virus; antibody staining; HeLa, Musoke; 400 µM).
`GVYYPDKVFR`: “response magnitude per positive donor” 114 (AIM; peptide, CD8+ T cells from PBMC, human donors; dose not given).
With `Cn1cnc(Cn2c(=O)[nH]/c(=N\c3cc4cn(C)nc4cc3Cl)n(Cc3cc(F)c(F)cc3F)c2=O)n1` the Tmax was 2.5 h (human, moderate renal impairment, plasma; oral, 375 mg single dose).
